Results of several laboratories.
Each line is one published result; not all experiments were run side by side. Numbers after ± are the reported error.

SMILES | assay | system | setting | how to read | measurement | result
Cc1ccc(S(=O)(=O)N(CCc2nnc(S)o2)c2ccc(Cl)cc2)cc1 | analgesic activity, tail flick test | rat | 75 mg/kg |  | protection | 110%
Cc1cc2c(cc1C1(c3ncc(C(=O)O)cn3)CC1)C(C)(C)CCC2(C)C | RNA sequencing, refers to: Angptl4 mRNA | rat, brain | dose not given, 24 h, single dose | relative to: vehicle | log2 fold change | -0.64
CCOP(=O)(CC(=O)Nc1ccc(S(=O)(=O)N(CC(N)=O)c2ccc(N(CC(N)=O)S(=O)(=O)c3ccc(OC)cc3)c3ccccc23)cc1)OCC | EMSA | APP/PS1 mice, hippocampus and frontal cortex | 40 mg/kg |  | Nrf2-ARE DNA binding | increased
COc1ccc(C2CC(c3ccc(C)cc3)=Nc3ccccc3S2)cc1OC (stereo not shown) |  | Wistar rat, STZ-induced diabetes | oral, 20 mg/kg once daily, day 1 |  | body weight | 192 ± 4.91 g
COC(=O)N1c2ccc3c(nc(Cc4ccccc4)n3[C@@H]3CCC[C@@H](C(=O)O)C3)c2CC[C@@H]1C |  | mouse, breast cancer PDX | oral, 50 mg/kg, 4 days/week, 45 days |  | responding ER+ AR+ xenografts | 67%
CCCOC(=O)Cc1c(C)n(C(=O)c2ccc(Cl)cc2)c2ccc(OC)cc12 | hot plate test | BALB/c mice | 100 mg/kg, 90 min |  | latency of nociceptive response | 15.7 ± 1.54 s
CSCC[C@@H]1NC(=O)[C@H](C)NC(=O)[C@H]([C@@H](C)O)NC(=O)CNC(=O)[C@H](CC(C)C)NC(=O)[C@H](CCC(N)=O)NC(=O)[C@H](CCCNC(=N)N)NC(=O)[C@@H]2CSSC[C@@H]3NC(=O)[C@@H]4CCCN4C(=O)[C@H](C(C)C)NC(=O)[C@H](CCC(N)=O)NC(=O)[C@H](CCC(N)=O)NC(=O)CNC(=O)[C@H](CC(C)C)NC(=O)[C@@H]4CSSC[C@H](NC(=O)[C@H]([C@@H](C)O)NC(=O)[C@H](C)NC(=O)[C@H](CSSC[C@@H](C(=O)N[C@@H](CO)C(=O)N[C@@H](CCC(N)=O)C(=O)N[C@H](C(N)=O)[C@@H](C)O)NC(=O)[C@@H]5CCCN5C(=O)[C@H](CC(N)=O)NC1=O)NC(=O)[C@@H]1CCCN1C(=O)[C@H](CC(=O)O)NC(=O)[C@H](CSSC[C@H](NC(=O)[C@H](CCC(N)=O)NC(=O)[C@H](CCC(N)=O)NC(=O)[C@H](CO)NC(=O)[C@@H](N)CO)C(=O)N[C@@H](C(C)C)C(=O)N[C@@H](CCCNC(=N)N)C(=O)N[C@@H](CC(C)C)C(=O)N[C@@H](Cc1c[nH]cn1)C(=O)N[C@@H](CCC(=O)O)C(=O)N[C@@H](CO)C(=O)N4)NC3=O)C(=O)N[C@@H](Cc1ccc(O)cc1)C(=O)N[C@H]1CSSC[C@H](NC(=O)[C@H](Cc3ccccc3)NC(=O)[C@H](C)NC(=O)[C@H](CC(N)=O)NC(=O)[C@H](Cc3ccccc3)NC(=O)[C@H](Cc3ccccc3)NC(=O)[C@H](CCCNC(=N)N)NC1=O)C(=O)N[C@@H](Cc1ccc(O)cc1)C(=O)N2 |  | Long-Evans rat, male | intracerebroventricular, 1.0 nmol, 5 days |  | body weight change | -6.09 ± 5 g
Oc1ncnc2c1sc1sc3c(O)ncnc3c12 | ABTS |  | concentration not given |  | radical scavenging | 64%
CC(C)c1cnc(-c2cc(Cl)ccc2F)cc1Nc1ccncc1C(=O)NC(CO)CO | SMAD2 phosphorylation | mouse, 4T1 tumour, tumour | 30 mg/kg twice daily then once, 3 h, normalized maximum |  | inhibition | 70%
COc1ccc(C2CC(c3ccc(C)cc3)=Nc3ccccc3S2)cc1 (stereo not shown) |  | Wistar rat, STZ-induced diabetes | oral, 20 mg/kg once daily, day 21 |  | body weight | 184 ± 4.13 g
CC/C=C\C/C=C\C/C=C\C/C=C\C/C=C\CCCCOC(CC)C(=O)O (stereo not shown) |  | APOE*3Leiden.CETP mice, high-fat/cholesterol diet | dose not given, 20 weeks | relative to: control | hepatic HETE isomers | decreased
CN(C)C(=O)c1ccnc(N2Cc3cn(Cc4ccc(F)cc4F)nc3C2)n1 | paired-pulse ratio | hippocampal Schaffer collaterals, mouse | concentration not given, interval 50 ms, unit not given | relative to: vehicle | effect size d | 1.83
COC(=O)[C@H](CSSC(C)(C)[C@H](NC(=O)[C@H](CCC(=O)NC[C@H](O)[C@@H](O)[C@H](O)[C@H](O)CO)NC(=O)[C@H](CCC(=O)O)NC(=O)[C@H](CCC(=O)NC[C@H](O)[C@@H](O)[C@H](O)[C@H](O)CO)NC(=O)[C@H](CCC(=O)O)NC(=O)[C@H](CCC(=O)NC[C@H](O)[C@@H](O)[C@H](O)[C@H](O)CO)NC(=O)CC[C@H](NC(=O)c1ccc(NCc2cnc3nc(N)[nH]c(=O)c3n2)cc1)C(=O)O)C(=O)O)NC(=O)CC[C@H](NC(=O)c1ccc(NCc2cnc3nc(N)nc(N)c3n2)cc1)C(=O)O | refers to: periarticular inflammation | Lewis rat, adjuvant-induced arthritis | 500 nmol/kg twice weekly × 2 | direction not given | histological score decrease | ~84%
CCCCCCCCCCCCCCCC(=O)NCCCC[C@H](N)C(=O)N[C@@H](CC(=O)O)C(=O)N[C@H](C(=O)N[C@@H](Cc1c[nH]cn1)C(=O)N[C@@H](Cc1ccccc1)C(=O)N[C@@H](CCCNC(=N)N)C(=O)N[C@H](C(=O)N[C@@H](Cc1ccccc1)C(=O)N[C@@H](CCCNC(=N)N)C(=O)N[C@@H](CO)C(=O)N[C@@H](Cc1c[nH]cn1)C(=O)N[C@@H](CO)C(=O)N[C@@H](CC(=O)O)C(=O)N[C@@H](Cc1ccc(O)cc1)C(=O)N[C@@H](CCCNC(=N)N)C(=O)N[C@@H](CCCNC(=N)N)C(=O)N[C@H](C(=O)O)[C@@H](C)CC)[C@@H](C)O)[C@@H](C)O | immunohistochemistry, refers to: F4/80, CD3 | C57BL/6J mice, MCD diet | 1.2 nmol/g, 3 weeks | relative to: vehicle | hepatic macrophage and T cells | decreased
Cc1cc(O)c(C=O)c2c1C(=O)Oc1c(CO)c(O)c3c(c1O2)C(O)OC3=O (stereo not shown) |  | streptozotocin diabetic male rats | 5 mg/kg, 0 weeks |  | body weight | 198 ± 7.91 g
CCc1nc(-c2ccc(-c3ccc(CCC(N)(CO)CO)cc3)cc2)co1 | phosphorylation | human whole blood | 60 min, 37 °C, up to 100 µM |  | Km | 81.3 ± 14.8 µM

Some of these lines once more:
SMILES | assay | system | setting | how to read | measurement | result
COC(=O)N1c2ccc3c(nc(Cc4ccccc4)n3[C@@H]3CCC[C@@H](C(=O)O)C3)c2CC[C@@H]1C |  | mouse, breast cancer PDX | oral, 50 mg/kg, 4 days/week, 45 days |  | responding ER+ AR+ xenografts | 67%
CCCOC(=O)Cc1c(C)n(C(=O)c2ccc(Cl)cc2)c2ccc(OC)cc12 | hot plate test | BALB/c mice | 100 mg/kg, 90 min |  | latency of nociceptive response | 15.7 ± 1.54 s
